Published values pooled from the literature.
Each line is one published result; not all experiments were run side by side. ± gives the spread as reported.
Cell line: U-87 MG

| Molecule | test | test system | setting | scale | endpoint | result |
| --- | --- | --- | --- | --- | --- | --- |
| CN1CCN(c2ccc(Nc3ncc4cc(C#N)c(=O)n(C5CCCC5)c4n3)cc2)CC1 | cell growth or viability, SRB | – | 72 h | – | IC50 | 3.4 µM |
| Clc1ccc(C2(c3ccc(-c4cn[nH]c4)cc3)CCNCC2)cc1 | electrochemiluminescence immunoassay, item: p70S6K phospho-Thr421/Ser424 | – | 1 h | – | IC50 | > 20 µM |
| O=NN(CCCl)C(=O)NCCCl | cell growth or viability, WST-1 | – | 500 µM, 24 h | – | viability | 17.7% |
| ACGLSGLCVAK | annexin V-PI flow cytometry | peptide | 10 µM | – | live cells | 98.2% |
| Cc1nc(Nc2ncc(C(=O)Nc3c(C)cccc3Cl)s2)cc(N2CCN(CCO)CC2)n1 | fibronectin Boyden chamber | – | 100 nM, 6 h | reference: vehicle | cell invasion | 15.4 ± 5.7% |
| CC[C@@]1(O)C(=O)OCc2c1cc1n(c2=O)Cc2cc3c(CN(C)C)c(O)ccc3nc2-1 | cell growth | – | 4 h exposure, read 4 days later | – | IC50 | 15.1 µM |
| COc1cccc2c1C(=O)c1c(O)c3c(c(O)c1C2=O)C[C@@](O)(C(=O)CO)C[C@@H]3O[C@H]1C[C@H](N)[C@H](O)[C@H](C)O1 | annexin V-PI flow cytometry | – | 10 µM | – | late apoptotic cells | 52.7% |
| CC(=O)c1c(C)c2cnc(Nc3ccc(N4CCNCC4)cn3)nc2n(C2CCCC2)c1=O | cell growth or viability | – | 6 days | – | IC50 | 0.253 µM |
